Results from different studies.
Every numbered part comes from another study and shows a few of its results, in no order.

Block 1
Target: RNA binding protein fox-1 homolog 2, RRM domain, GST-SBP tag (RBFOX2, Homo sapiens, UniProt O43251-10, residues 100-194)
Technique: RNA Bind-n-Seq
Form: RNA
Matrix: in vitro
Concentration: 365 nM
Setting: natural RNA segment, single round, ends assumed
Reference: no-protein control
Direction: higher = stronger binding
Constant ends, left off below: GGGAGUUCUACAGUCCGACGAUC … UGGAAUUCUCGGGUGCCAA
Target sequence (chain): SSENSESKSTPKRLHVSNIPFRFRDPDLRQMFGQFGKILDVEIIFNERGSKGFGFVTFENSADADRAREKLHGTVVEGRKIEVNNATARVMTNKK
Sequence	RBNS enrichment (R)
AAUCUUACCUACCUCCUGGGGGGGGGGGAGUUCUGAGAACGAAGUCAUUCUUAGUGUUCAGGUGCUAAAGGUUGUUCUCUUUGGGAACAGAGUGACAAGAAACUGGCUAG	0.718
UUAUUUUAAAUGUUUACAUUUCUUUGUGUUGUUCCAAGCCUGAAUAGAAACAGAUAGCAUUAAAGUACUUCCUUCCCACUCCUUUCUCUGGCUCUCUCUCCCCCACUUGU	1.03
CUGAAAAUGUAAAUUUAUACAUCUAUUCAGGAGUUGGAGUGUUGUGGUUACCUACUGAGUAGGCUGCAGUUUUUGUAUGUUAUGAACAUGAAGUUCAUUAUUUUGUGGUU	2.35
GCAGCCUUCCAGAGACUGAUCCUGGAGAUUGAGUUGAUUGUCUUGGCUAGACCUGUCAUUUUAAGCUCUAGUCAUAGCACUUUUUCAGAGCAUCUUAGGCACCAUUGCAA	2.67
CCUUUCUAAGCUCCCUAACUUGGGCCAGAAACCAAAGCUGAGCUUUUAACUUUCUCCCUCUAUGACACAAAUGAAUUGAGGGUAGGAGGAGGGUGCACAUAACCCUUACC	0.47
UGUGCAAUUGGAGAAUCUUGCCUUUUUUCUUGGCUCCCCCCAAAAAUACAAACCAACAGAAACUUGUUAUGCACUCAUCAAAAUGUACUAAUGGGUACUCUGAACUCAUU	0.467
AGAGAGUUUGCCUUAUACAAUUUCCUGUUACAAAGCUCUCCCUCUCAUGCAAAGUAGGGAACACCUUUUGAGCAUCUUUGAAUUUGACAAAUGGUGCUGUUGCAAACACU	0.23
CUGCGUAUCGCAGUGGAAUAAGACUGCACAGUUGCUGGUAGGUGAGUUUAAAGUCUUAAUCUAUGCAUUCAGAGAAAUAUUUUUAUAUGCUUUGUGUAAUUUAUAACAAG	0.618
UUUGUAUUUUUAGUAGAGACGGGGUUUCACUGUGGUCUCGAUCUCCUGACCUCGUGAUCCGCCCGCCUUGGCCUCCCAAGGUGCUGGGAUUACAAGCGUGAGCCACCGCA	0.433
UCAGACCGUAUUACAACAAAAACAAACGUCCCUUUCGUUCCUUGUGAGAUUUUCAUCCAAAGCCACACUCCUAGCCUAAGGCACUUCAUCUUUACGAUAUAAAAUGAUGG	0.51
GCUCUAGUGCUGUAGGAACCAAGAGCCAGCCCCAGGUUCCCCGAGGCAGUAAAAAUCCAGCACAGGGGGCUGUGUCCCUAAGGCAAGCCCUGAUUACCUUUAAAAAAAAC	0.291
GAGGGAGAAGACUGCACGAGAGUGAUGCGCAUUUCGAGUCUGCUUUUCGAUAGUUGAUGUCUUCUUGCCUUUUUAAAAAACCAUAUAUAUAUAAAGUUUAGGGUUUGCUC	3.36

Block 2
Target: Centromere-binding protein 1, full length, His-tagged (CBF1, Saccharomyces cerevisiae, UniProt P17106, residues 1-351)
Chain of UniProt P17106 (whole entry, looked up): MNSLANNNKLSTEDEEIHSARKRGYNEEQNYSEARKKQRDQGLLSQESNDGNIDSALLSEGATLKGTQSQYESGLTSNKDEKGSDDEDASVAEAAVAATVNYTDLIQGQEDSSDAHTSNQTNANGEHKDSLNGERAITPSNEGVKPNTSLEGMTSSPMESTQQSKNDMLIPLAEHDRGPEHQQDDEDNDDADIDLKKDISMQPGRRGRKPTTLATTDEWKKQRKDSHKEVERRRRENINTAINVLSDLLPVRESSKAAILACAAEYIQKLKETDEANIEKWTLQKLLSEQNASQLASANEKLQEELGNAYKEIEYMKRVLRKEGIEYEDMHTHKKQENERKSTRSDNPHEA
Technique: competition protein-binding microarray
Form: double-stranded DNA, one strand shown
Matrix: in vitro
Concentration: 2 µM
Setting: whole 60-bp probe, lowest competitor level
Added: Pho4 competitor, 0.05 µM
Direction: higher = stronger binding
Constant ends, left off below: … GTCTTGATTCGCTTGACGCTGCTG
Sequence	fluorescence intensity
CCTAAGATGGGTCGGCACGTGTAATGAACTGAACGC	951 a.u.
CGGGGTTAAGTTTGATGTGTGGGTGGCTTGCAGCAG	61.6 a.u.
AAATTACTAAGTTGTCACCTGACTTACCCCGTATGA	2460 a.u.
TACGAACAATATCCACACGTGGCCGTTGTAAAGCTT	967 a.u.
TTCGAAAAGATTCACCACGTTTCCGTCGTTATCAGC	101 a.u.
GGTGGTACCTGTGTTAACGTGGGTAGTGTTCCGAAG	95.4 a.u.
GTTGAGCAGCTCTCCTGCGTGCTTTCACAGAGACCC	63 a.u.
GCTTCCCTATTTTTGCACGTTTTGGTTGCTCCCAAG	139 a.u.
CTTCTTGTCACCGCTCCCGTGAACGGCCCATGCTAC	105 a.u.
GCAGCACCCAAGCTTCCCGTGTATCCATACCACCCT	52.1 a.u.
GATCAGTTTGAAAGAAACGTGAAAATTATTTTTTTC	248 a.u.
CGTCCTAGTGATTTTCACGTGCTTTCCATGAGGAAG	1630 a.u.
CTTCTGTAAATTTGGTGAGTGGGTGGACGCGCCCCG	81.7 a.u.
CTTTGTCTTGAAATGCGCGTGTCGGTAAAATATTGT	107 a.u.
CGGGGTTAAGTTTGTGCAGTGGGTGGCTTGCAGCAG	59.3 a.u.
ACCAGCGTTGGACGCGTCGTGCGGATTCGTTCTTGT	58.8 a.u.
GTCTTGTCTCATTGACGTGTGGGTGTCCCCACTTCA	77.3 a.u.
CTTTCCCGATCTTGCGTGGTGGGTGTAGCACATTTG	84.4 a.u.

Block 3
Target: RING finger protein unkempt homolog, zinc fingers 1-6, GST-SBP tag (UNK, Homo sapiens, UniProt Q9C0B0, residues 30-357)
Chain of UniProt Q9C0B0 (30-357, looked up): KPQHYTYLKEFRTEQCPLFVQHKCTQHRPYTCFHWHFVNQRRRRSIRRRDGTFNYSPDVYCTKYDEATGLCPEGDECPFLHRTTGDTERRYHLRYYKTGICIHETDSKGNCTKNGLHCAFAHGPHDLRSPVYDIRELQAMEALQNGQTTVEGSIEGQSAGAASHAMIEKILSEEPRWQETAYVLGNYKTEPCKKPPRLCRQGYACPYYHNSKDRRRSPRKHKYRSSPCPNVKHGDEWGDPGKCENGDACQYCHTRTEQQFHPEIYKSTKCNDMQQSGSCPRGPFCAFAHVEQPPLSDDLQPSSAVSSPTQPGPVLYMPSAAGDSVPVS
Technique: RNA Bind-n-Seq
Form: RNA
Matrix: in vitro
Concentration: not given
Setting: RNA with constant flanks, human-mouse chimeric sites, ends assumed
Reference: input RNA pool
Direction: higher = stronger binding
Constant ends, left off below: GGGAGUUCUACAGUCCGACGAUC … CAACAGAGGAUUGAGCAUCA
Sequence	bound/input enrichment
CCCCAAUUACCAUCUGUGGUCUGGAACUGCACUCUCUUUUUUAAAAAAUAUGCAUAUAUUUUAGGGCUGUAGAUUUAUUUUCCUGGUUUUGUUUUUCAUUGCUGACUUUUGAGCACAGAA	1.11 ratio
AACAGAUUGUCUUUAAGGUCAACGUAGGAGAAUGCUGAAAUAGUCAUUGUUGCCCAUGUGCCUUCUGACUGAGCUUUAAUGCUGUUCCAUGUUACAUCUUUCCUUCACUCCAGAAUUGUU	0.175 ratio
CUGUGACUGAUGGCAGCUACCUGAGUGUUCAGAUGGGUUGACUCCCUCUCCUUGCCUGAACCCCCCCCCACUGCCCCCCCAUCCCCCAGUGUCGGCUGAGAUGUUGCCUCUGCACGGUUC	0.44 ratio
UCGGAUGCUGUGCUGGGUCACUUUUCAUAUCCAGAUCCUUCCCAGUGGACAGAUGAAGAACUGGGAAUCCCUCCUGAUGACGAGGACUGAAGGUGUAAACUCUCUGGACGAGUAGGAGCA	0.457 ratio
GCACUUCUCAAAUACUGGCCAAAGACUCACAGUCCAAAAGAAGUAAUGUUCUUAAAUGAAUUAGAAGAAAUUUUAGAUGUAAUUGAACCAUCAGAAUUUGUGAAGAUCAUGGAACCCCUU	0.682 ratio
ACCAUUUUCGCGGUUCAAGGUUUUGUGGUAGUUCACUUACGGUAUUAAAUUAUUAUUCUGCUUAGCUUAUAAUAAGGAUAAUUGCAUGAUUUAAGUAUACUGAAUGUUACUCUGAAACUU	0.378 ratio
UUAAUCCCCUUUACUGCUCCCCCACUUCUCAUGGUAAUAACAAAGUCUUAUAUCCCCGUCCUAGCUUUUACUCAGAUGGCUUAUGGAGCCAGUUUCCUAGCUUUCUUGGGAGGGAUCAGA	0.567 ratio
CUGGCACUCUAUCAGAUAUAUUAAUUUUUAAAUGUAGAUGUAAUUUUAAAAAUGAAUGGCUAGUUUACACGUUUAACUAGGGUUUUACUAUAUAUGUGUACAUAUGUAUAUAUAUAUAUA	7.97 ratio
CACAGAGGAGACCUCCUGUUCCUCACGAAUUUCCGGGAAGACCCAAUCAGAGCUGGUGAAAUAGUUGUUUUUAAGGUUGAAGGAAGAGACAUUCCGAUAGUUCACAGAGUAAUCAAGGUU	1.23 ratio
CUCGGCACCGGCACGCUUUACAUCGCUGAGAGCCGCCUGUCCUGGUUAGAUGGUUCGGGAUUAGGAUUCUCACUGGAAUACCCCACCAUUAGUUUACAUGCAUUAUCCAGGGAUCCAAAC	1.87 ratio
UCAACUGACAACAUCAAAUACCAGCCUAAAGGGGGGCAGGUACAAAUUGUUACUAAGAAAAUAGACCUAAGCCAUGUGACAUCCAAAUGUGGCUCUCUGAAGAACAUCCGCCACAGGCCA	0.362 ratio

Block 4
Target: Eukaryotic initiation factor 4A-I (EIF4A1, Homo sapiens, UniProt P60842, residues 1-406, full length assumed)
Chain of UniProt P60842 (whole entry, looked up): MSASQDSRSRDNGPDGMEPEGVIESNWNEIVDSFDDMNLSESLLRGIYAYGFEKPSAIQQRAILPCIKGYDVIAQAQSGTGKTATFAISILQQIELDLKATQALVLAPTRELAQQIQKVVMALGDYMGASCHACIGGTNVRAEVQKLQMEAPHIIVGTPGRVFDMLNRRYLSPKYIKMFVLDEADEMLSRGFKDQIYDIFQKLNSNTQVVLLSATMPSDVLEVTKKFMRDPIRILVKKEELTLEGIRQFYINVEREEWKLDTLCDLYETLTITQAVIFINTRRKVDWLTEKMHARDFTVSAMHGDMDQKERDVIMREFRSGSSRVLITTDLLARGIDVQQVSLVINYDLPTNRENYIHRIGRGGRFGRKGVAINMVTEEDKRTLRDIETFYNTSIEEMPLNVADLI
Technique: RNA Bind-n-Seq
Form: RNA
Matrix: in vitro
Concentration: 15 pmol
Setting: 4-mer, random 30-nt RNA, single round
Added: 3 µM DMDA-PatA, 2 mM AMP-PNP
Reference: input library
Direction: higher = stronger binding
Sequence	4-mer enrichment [fold]
GAGG	1.02
AGAU	1.19
CCCU	0.482
CAGU	0.816
UGCC	0.702
GUUU	1.31
UCUA	0.997
CGAA	0.969
GUCG	1.04
AGUC	0.839
UUGA	1.11
UAGU	1.47
AAAG	0.984
CUGU	1.32
GGCU	1.35
CAUA	0.649
GCGC	1.01
CCUU	0.703
CGCC	0.42
CCAG	0.508
UUGU	1.65
CAAC	0.434
CACU	0.569
CUCU	0.694
AUCG	1.54

Repeated from above (block 4):
Sequence	4-mer enrichment [fold]
UGCC	0.702
CCCU	0.482
CUCU	0.694
CACU	0.569
CGCC	0.42
AUCG	1.54
GCGC	1.01
GAGG	1.02
GGCU	1.35
